Published values gathered from unrelated publications.
Compare with care: the assays were run in different laboratories. Values joined by “and” are separate records of one study, mostly repeats; a detail may differ.
PARP2: Poly [ADP-ribose] polymerase 2 (PARP2, Homo sapiens, UniProt Q9UGN5)
Sequence of UniProt Q9UGN5 (whole entry, looked up): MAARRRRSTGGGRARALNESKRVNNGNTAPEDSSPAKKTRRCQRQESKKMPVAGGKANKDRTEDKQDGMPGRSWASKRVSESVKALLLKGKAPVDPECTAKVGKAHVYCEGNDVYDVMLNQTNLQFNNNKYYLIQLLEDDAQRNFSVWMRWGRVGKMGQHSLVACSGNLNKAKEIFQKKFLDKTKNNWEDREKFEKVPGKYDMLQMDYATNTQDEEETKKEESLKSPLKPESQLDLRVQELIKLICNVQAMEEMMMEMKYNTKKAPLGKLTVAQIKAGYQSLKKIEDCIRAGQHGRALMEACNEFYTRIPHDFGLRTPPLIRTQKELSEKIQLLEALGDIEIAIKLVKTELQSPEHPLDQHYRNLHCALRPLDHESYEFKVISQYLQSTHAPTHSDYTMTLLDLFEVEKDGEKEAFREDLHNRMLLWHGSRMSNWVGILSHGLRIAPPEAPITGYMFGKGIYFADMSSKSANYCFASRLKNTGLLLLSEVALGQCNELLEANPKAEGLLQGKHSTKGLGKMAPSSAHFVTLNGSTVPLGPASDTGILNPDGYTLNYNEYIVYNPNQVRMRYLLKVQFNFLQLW
CES2: Cocaine esterase (CES2, Homo sapiens, UniProt O00748)
Sequence of UniProt O00748 (whole entry, looked up): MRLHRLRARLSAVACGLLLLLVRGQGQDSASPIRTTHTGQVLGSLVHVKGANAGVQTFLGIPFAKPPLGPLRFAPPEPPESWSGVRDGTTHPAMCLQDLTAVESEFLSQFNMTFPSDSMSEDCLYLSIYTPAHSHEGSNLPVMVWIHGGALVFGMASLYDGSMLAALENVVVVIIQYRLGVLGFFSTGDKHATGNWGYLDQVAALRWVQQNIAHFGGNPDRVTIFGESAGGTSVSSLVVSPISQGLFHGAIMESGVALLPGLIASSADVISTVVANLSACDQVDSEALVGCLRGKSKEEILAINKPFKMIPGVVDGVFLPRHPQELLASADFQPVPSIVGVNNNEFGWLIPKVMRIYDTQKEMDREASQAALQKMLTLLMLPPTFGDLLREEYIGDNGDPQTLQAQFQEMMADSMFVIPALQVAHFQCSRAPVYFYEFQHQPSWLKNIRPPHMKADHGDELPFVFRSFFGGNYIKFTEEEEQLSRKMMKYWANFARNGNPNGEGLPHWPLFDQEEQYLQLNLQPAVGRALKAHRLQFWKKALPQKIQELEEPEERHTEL
DRD3: D(3) dopamine receptor (DRD3, Homo sapiens, UniProt P35462)
Sequence of UniProt P35462 (whole entry, looked up): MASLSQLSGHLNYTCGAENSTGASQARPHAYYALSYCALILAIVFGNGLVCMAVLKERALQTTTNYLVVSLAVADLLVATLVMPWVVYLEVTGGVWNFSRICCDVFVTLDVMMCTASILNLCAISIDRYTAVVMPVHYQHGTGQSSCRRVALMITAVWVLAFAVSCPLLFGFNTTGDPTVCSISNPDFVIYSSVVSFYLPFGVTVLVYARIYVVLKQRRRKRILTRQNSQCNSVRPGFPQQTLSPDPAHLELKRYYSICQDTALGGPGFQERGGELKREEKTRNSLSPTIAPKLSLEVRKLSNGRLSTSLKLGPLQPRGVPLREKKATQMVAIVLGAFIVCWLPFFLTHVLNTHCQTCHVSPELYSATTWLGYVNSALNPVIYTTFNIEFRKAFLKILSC
HDAC8: Histone deacetylase 8 (HDAC8, Homo sapiens, UniProt Q9BY41)
Sequence of UniProt Q9BY41 (whole entry, looked up): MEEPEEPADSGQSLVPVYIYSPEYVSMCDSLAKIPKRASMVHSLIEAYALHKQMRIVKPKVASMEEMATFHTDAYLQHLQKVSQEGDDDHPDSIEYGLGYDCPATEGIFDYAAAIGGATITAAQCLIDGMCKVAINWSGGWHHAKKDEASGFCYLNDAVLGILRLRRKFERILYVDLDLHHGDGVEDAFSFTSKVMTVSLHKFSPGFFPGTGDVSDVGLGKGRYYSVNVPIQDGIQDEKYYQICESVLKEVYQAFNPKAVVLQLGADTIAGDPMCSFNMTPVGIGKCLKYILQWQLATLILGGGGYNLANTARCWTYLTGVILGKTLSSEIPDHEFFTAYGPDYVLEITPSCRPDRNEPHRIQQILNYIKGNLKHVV
PIK3CB: Phosphatidylinositol 4,5-bisphosphate 3-kinase catalytic subunit beta isoform (PIK3CB, Homo sapiens, UniProt P42338)
Sequence of UniProt P42338 (whole entry, looked up): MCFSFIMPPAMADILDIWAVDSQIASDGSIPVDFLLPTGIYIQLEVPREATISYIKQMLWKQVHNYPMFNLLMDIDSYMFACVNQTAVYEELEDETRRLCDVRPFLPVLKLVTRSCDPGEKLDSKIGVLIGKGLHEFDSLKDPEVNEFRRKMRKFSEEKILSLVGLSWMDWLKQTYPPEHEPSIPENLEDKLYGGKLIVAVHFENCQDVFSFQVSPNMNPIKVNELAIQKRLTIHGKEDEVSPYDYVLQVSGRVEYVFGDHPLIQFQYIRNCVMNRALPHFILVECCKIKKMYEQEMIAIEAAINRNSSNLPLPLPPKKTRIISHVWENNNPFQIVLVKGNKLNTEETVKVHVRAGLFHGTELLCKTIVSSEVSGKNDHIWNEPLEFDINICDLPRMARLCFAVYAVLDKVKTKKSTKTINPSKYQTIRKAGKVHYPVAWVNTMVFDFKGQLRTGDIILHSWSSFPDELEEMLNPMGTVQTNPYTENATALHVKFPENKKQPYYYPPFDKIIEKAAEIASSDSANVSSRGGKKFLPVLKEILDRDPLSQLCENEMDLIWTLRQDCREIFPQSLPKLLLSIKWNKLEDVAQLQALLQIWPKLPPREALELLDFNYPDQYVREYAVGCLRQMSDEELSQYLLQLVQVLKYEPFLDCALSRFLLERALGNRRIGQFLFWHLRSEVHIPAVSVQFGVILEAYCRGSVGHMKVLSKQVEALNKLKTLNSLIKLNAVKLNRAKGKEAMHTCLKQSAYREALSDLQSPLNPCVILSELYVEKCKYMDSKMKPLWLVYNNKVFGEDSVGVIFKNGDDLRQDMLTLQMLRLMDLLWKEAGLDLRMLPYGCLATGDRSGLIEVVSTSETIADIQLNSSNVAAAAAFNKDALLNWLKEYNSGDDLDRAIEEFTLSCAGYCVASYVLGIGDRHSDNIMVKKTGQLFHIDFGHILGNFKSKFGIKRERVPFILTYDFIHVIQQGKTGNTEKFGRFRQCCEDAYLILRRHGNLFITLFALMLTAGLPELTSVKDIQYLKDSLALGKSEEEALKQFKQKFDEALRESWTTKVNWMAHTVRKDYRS
HDAC1: Histone deacetylase 1 (HDAC1, Homo sapiens, UniProt Q13547)
HDAC6: Protein deacetylase HDAC6 (HDAC6, Homo sapiens, UniProt Q9UBN7)
Sequence of UniProt Q9UM07 (whole entry, looked up): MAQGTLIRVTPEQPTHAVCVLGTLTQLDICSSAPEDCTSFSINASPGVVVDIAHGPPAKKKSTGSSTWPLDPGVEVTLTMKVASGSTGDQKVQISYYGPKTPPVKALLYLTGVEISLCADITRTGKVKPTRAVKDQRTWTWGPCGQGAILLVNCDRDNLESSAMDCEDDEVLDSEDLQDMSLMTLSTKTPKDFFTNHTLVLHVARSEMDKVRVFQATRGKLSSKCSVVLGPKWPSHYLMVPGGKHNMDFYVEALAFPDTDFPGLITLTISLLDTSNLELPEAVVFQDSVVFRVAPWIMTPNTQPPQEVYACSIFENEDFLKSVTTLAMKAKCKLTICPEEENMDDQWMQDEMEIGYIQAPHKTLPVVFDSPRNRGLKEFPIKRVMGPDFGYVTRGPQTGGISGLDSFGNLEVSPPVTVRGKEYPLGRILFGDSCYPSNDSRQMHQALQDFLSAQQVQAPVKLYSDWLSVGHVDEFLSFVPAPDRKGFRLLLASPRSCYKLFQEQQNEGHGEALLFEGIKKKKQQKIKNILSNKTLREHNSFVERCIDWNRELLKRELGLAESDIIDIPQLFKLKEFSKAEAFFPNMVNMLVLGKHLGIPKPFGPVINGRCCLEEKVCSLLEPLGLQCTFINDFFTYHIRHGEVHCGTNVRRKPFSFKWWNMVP
Sequence of UniProt Q9UBN7 (whole entry, looked up): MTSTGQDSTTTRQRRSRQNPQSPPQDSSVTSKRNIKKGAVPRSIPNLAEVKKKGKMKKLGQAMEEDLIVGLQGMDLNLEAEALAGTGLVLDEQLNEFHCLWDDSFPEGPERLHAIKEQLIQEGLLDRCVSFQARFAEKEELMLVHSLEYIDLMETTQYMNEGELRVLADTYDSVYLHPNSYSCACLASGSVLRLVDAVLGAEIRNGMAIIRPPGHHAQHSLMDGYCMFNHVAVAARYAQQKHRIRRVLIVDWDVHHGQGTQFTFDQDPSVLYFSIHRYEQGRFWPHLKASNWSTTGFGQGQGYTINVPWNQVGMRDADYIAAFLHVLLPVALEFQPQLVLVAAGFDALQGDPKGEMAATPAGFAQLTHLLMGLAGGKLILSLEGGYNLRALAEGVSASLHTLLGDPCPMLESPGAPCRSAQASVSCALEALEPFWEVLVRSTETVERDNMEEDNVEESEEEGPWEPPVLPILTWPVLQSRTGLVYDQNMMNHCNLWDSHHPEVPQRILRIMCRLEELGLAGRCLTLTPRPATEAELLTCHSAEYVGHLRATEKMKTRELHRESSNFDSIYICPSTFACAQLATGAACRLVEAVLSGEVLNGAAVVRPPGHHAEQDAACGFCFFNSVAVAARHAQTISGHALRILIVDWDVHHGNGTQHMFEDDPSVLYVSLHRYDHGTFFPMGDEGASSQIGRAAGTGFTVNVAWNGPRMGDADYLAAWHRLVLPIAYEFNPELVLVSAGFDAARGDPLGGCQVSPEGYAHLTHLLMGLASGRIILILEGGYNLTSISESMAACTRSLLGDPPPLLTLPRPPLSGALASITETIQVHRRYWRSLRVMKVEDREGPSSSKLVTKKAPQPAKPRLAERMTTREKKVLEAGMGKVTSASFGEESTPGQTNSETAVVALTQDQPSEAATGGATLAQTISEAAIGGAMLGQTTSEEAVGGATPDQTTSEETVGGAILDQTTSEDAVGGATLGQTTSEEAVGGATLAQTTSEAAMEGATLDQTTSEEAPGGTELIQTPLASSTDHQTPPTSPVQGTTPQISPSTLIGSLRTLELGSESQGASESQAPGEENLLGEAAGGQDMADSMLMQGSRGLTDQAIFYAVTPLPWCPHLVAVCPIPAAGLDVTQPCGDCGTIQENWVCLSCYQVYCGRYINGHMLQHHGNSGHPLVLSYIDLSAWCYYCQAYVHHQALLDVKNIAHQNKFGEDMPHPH

COc1cccc(Cn2nnc3c4ccc(F)cc4c(=O)[nH]c32)c1  IC50 (PARP2; enzyme activity, inhibitor): > 10000 nM
C=CC(=O)N1CCC(COCC(=O)N2CCN(c3nc(-c4cnc(N)nc4C(F)F)nc(N4CCOC[C@@H]4C)n3)CC2)CC1  remaining binding (Homeodomain-interacting protein kinase 3 (HIPK3, Homo sapiens, UniProt Q9H422); binding, competition with immobilised ligand; 1 µM): 100%
O=C1/C(=C/c2ccccc2)Cc2ccccc21  IC50 (CES2; enzyme activity, inhibitor, fluorescence; with preincubation): 12400 nM
CC(=O)Nc1ccc(Oc2nnc(-c3ccc(Cl)cc3)c3ccccc23)cc1  viability (MCF7; cell growth or viability, MTT; 78 nM, 24 h): 79.4%
Cc1[nH]c(C)c(S(=O)(=O)Nc2ccc(C(=O)C3CC3)c(Cl)c2)c1C(=O)N1CCC(F)(F)C1  IC50 (DRD3; β-arrestin recruitment, antagonist): 8100 nM
COc1ccc(OS(=O)(=O)Oc2cccc(C(=O)NO)c2)cc1OC  IC50 (HDAC8; enzyme activity, inhibitor, fluorescence): 33 nM
COc1cc(-c2cncc3c2CN(C)Cc2cc(N4CCNCC4)ccc2-3)cc(OC)c1OC  remaining activity (Serine/threonine-protein kinase PAK 6 (PAK6, Homo sapiens, UniProt Q9NQU5); enzyme activity, inhibitor; 1 µM): 111%
O=C(NO)c1cccc(OS(=O)(=O)Oc2ccc(Oc3ccccc3)cc2)c1  IC50 (HDAC8; enzyme activity, inhibitor, fluorescence): 1590 nM
COc1cc2c(Nc3ccc(Br)cc3F)ncnc2cc1OCC1CCN(C)CC1  IC50 (CES2; enzyme activity, inhibitor, fluorescence; with preincubation): > 100000 nM
COc1cc2ncnc(N(C)c3ccc4c(c3)/C(=C/c3ccccc3)C(=O)N4C)c2cc1OC (mixture of isomers)  IC50 (PIK3CB; enzyme activity, inhibitor, ADP detection): 344 nM
Cc1[nH]c(C)c(S(=O)(=O)Nc2ccc(C(F)(F)F)c(Cl)c2Cl)c1C(=O)N1CCC(F)(F)C1  IC50 (DRD3; β-arrestin recruitment, antagonist): 680 nM
COc1cc2c(cc1OC)C(=O)/C(=C/c1ccccc1N1CCOCC1)C2  IC50 (CES2; enzyme activity, inhibitor, fluorescence; with preincubation): 850 nM
CCCCC(=O)Nc1ccc(-c2ccc3ncn(CCC)c(=O)c3c2)cn1  remaining binding (Serine/threonine-protein kinase SIK2 (SIK2, Homo sapiens, UniProt Q9H0K1); binding, competition with immobilised ligand; 0.5 µM): 100%
COc1cc(N=C2C(=O)Nc3ccccc32)cc(OC)c1  IC50 (PIK3CB; enzyme activity, inhibitor, ADP detection): 86.4 nM
C1=C/COCc2cc(ccc2OCCN2CCCC2)Nc2nccc(n2)-c2cccc(c2)COC/1  remaining binding (Serine/threonine-protein kinase BRSK2 (BRSK2, Homo sapiens, UniProt Q8IWQ3); binding; 0.1 µM): 100%
O=c1[nH]c2c(nnn2Cc2c(F)c(F)c(F)c(F)c2F)c2ccc(F)cc12  IC50 (PARP2; enzyme activity, inhibitor): > 10000 nM
C=CCN1C(=O)C(=Nc2cccc(C)c2)c2ccccc21  IC50 (PIK3CB; enzyme activity, inhibitor, ADP detection): 835 nM
COc1cc2c(cc1OC)C(=O)/C(=C/c1ccc(F)cc1F)C2  IC50 (CES2; enzyme activity, inhibitor, fluorescence; with preincubation): > 100000 nM
CC(=O)Nc1ccc(Nc2nc(-c3sc(N)nc3C)cs2)cc1  IC50 (Protein-lysine 6-oxidase (Homo sapiens, UniProt P28300); enzyme activity, inhibitor, fluorescence; with preincubation): 280 nM
Cc1[nH]c(C)c(S(=O)(=O)Nc2ccc(C(F)(F)F)c(Cl)c2)c1C(=O)N(C)CC(F)(F)F  IC50 (DRD3; β-arrestin recruitment, antagonist): > 50000 nM
Nc1ccn([C@@H]2O[C@H](CO)[C@@H](O)C2(F)F)c(=O)n1  viability (MDA-MB-231; cell growth or viability, MTT; 10 µg/mL, 24 h): 42.7%
Cc1[nH]c(C)c(S(=O)(=O)Nc2ccc(C(F)(F)F)c(Cl)c2)c1C(=O)N1C[C@@H](F)[C@@H](F)C1  IC50 (DRD3; G protein activation, antagonist, BRET): 950 nM
Cc1nc(Nc2ccc3c(c2)CC(=O)N3)c2ccccc2n1  IC50 (PIK3CB; enzyme activity, inhibitor, ADP detection): 96.9 nM
CNc1ncc2c(/C=C/C(=O)N3CCC(OC)CC3)nn(Cc3cccc(C(F)(F)F)c3)c2n1  remaining activity (Serine/threonine-protein kinase PLK2 (PLK2, Homo sapiens, UniProt Q9NYY3); enzyme activity, inhibitor, radiometric; 1 µM): 101%
Nc1ccccc1NC(=O)c1ccc(CNc2ccc(NC3=C(Cl)C(=O)c4cccnc4C3=O)cc2)cc1  IC50 (HDAC1; enzyme activity, inhibitor): 67.5 nM
COc1cccc(-c2n[nH]c(SCc3ccccn3)n2)c1OC  concentration (male Sprague-Dawley rat, plasma; oral, 10 mg/kg, 4 h, single dose): 289 ng/mL
FC(F)OC(Cl)C(F)(F)F (stereo not shown)  IC50 (Cystathionine beta-synthase (CBS, Homo sapiens, UniProt P35520); enzyme activity, inhibitor): 2000 nM
O=c1[nH]c2c(nnn2C2CCCCC2)c2ccc(F)cc12  IC50 (Protein mono-ADP-ribosyltransferase PARP10 (PARP10, Homo sapiens, UniProt Q53GL7); enzyme activity, inhibitor): > 10000 nM
COc1ccc2c(c1)C(=O)/C(=C/c1ccccc1)C2  IC50 (CES2; enzyme activity, inhibitor, fluorescence; with preincubation): 2360 nM
CCn1cnc2c([C@@](O)(CC)c3ccc(C(F)(F)F)nc3)n(C)nc2c1=O  IC50 (Dihydroorotate dehydrogenase (quinone), mitochondrial (DHODH, Homo sapiens, UniProt Q02127); enzyme activity, inhibitor): > 30000 nM and 45000 nM
CCCCn1c(=O)c2cc(F)ccc2c2nnn(Cc3ccc(C)cc3)c21  IC50 (PARP2; enzyme activity, inhibitor): > 10000 nM
COc1cc2c(cc1OC)C(=O)/C(=C/c1ccc(-c3ccccc3)cc1)C2  IC50 (CES2; enzyme activity, inhibitor, fluorescence; with preincubation): 1270 nM
O=C(NO)c1cncc(OS(=O)(=O)Oc2ccc(-n3ccnc3)cc2)c1  IC50 (HDAC8; enzyme activity, inhibitor, fluorescence): 665 nM
Cc1[nH]c(C)c(S(=O)(=O)Nc2ccc(C(F)(F)F)c(Cl)c2)c1C(=O)N1CCC(C#N)C1 (stereo not shown)  IC50 (DRD3; G protein activation, antagonist, BRET): 8100 nM
CCCCOc1nc(N)nc(N)c1OCCCOc1ccccc1CCC(=O)O  IC50 (Dihydrofolate reductase (Mycobacterium avium, UniProt O30463); enzyme activity, inhibitor): > 5000 nM
COc1cc2c(N3CCN(C(=O)Nc4ccc(OC(C)C)cc4)CC3)ncnc2cc1OCCCN1CCCCC1  IC50 (CES2; enzyme activity, inhibitor, fluorescence; with preincubation): > 100000 nM
Cc1cc(OS(=O)(=O)Oc2ccc(-n3ccnc3)cc2)cc(C(=O)NO)c1  IC50 (HDAC8; enzyme activity, inhibitor, fluorescence): 2050 nM
CCCCCOc1ccc2cc(C(=O)N[C@@H](CCCNC(=N)CCl)C(=O)NCc3ccccc3)ccc2c1  IC50 (Protein-arginine deiminase type-4 (PADI4, Homo sapiens, UniProt Q9UM07); enzyme activity, inhibitor, fluorescence; with preincubation): ~900 nM and 902 nM
O=C(NO)c1cccc(OS(=O)(=O)Oc2ccc3ccccc3c2)c1  IC50 (HDAC1; enzyme activity, inhibitor, fluorescence): 4790 nM
Cc1cc([C@@H](C)Nc2ccccc2C(=O)O)c2nc(N3CCC(F)(F)CC3)c(C#N)c(=O)n2c1  remaining binding (Atypical kinase COQ8A, mitochondrial (COQ8A, Homo sapiens, UniProt Q8NI60); binding, competition with immobilised ligand; 1 µM): 100%
Cc1cc(C(C)(C)C)ccc1OS(=O)(=O)Oc1cc(F)cc(C(=O)NO)c1  IC50 (HDAC8; enzyme activity, inhibitor, fluorescence): 10300 nM
COc1ccc(C[C@H](NC(=O)[C@H](C)NC(=O)CN2CCOCC2)C(=O)N[C@@H](CC2CCC3CCCCC3C2)C(=O)[C@@]2(C)CO2)cc1 (stereo partly shown)  IC50 (Proteasome subunit beta type-8 (PSMB8, Homo sapiens, UniProt P28062); enzyme activity, inhibitor; lysate): 375 nM
O=C1C(=Nc2ccccc2I)c2ccccc2N1Cc1ccc([N+](=O)[O-])cc1  IC50 (PIK3CB; enzyme activity, inhibitor, ADP detection): 35.1 nM
Cc1[nH]c(C)c(S(=O)(=O)Nc2ccc(C(F)(F)F)c(Cl)c2)c1C(=O)N1CCC(O)C1 (stereo not shown)  IC50 (DRD3; G protein activation, antagonist, BRET): 6200 nM
NC(=O)N1c2ccccc2C=Cc2ccccc21  IC50 (CES2; enzyme activity, inhibitor, fluorescence; with preincubation): > 100000 nM
O=C1C(=Nc2ccc(Cl)cc2)c2ccccc2N1Cc1cccc(Cl)c1  IC50 (PIK3CB; enzyme activity, inhibitor, ADP detection): 58 nM
COc1ccc(Cn2nnc3c4ccc(F)cc4c(=O)[nH]c32)cc1  IC50 (PARP2; enzyme activity, inhibitor): > 10000 nM
Cc1ccc(CN2C(=O)C(=Nc3c(C(C)C)cccc3C(C)C)c3ccccc32)cc1  IC50 (PIK3CB; enzyme activity, inhibitor, ADP detection): 145 nM
Cc1[nH]c(C)c(S(=O)(=O)Nc2ccc(C(F)(F)F)c(Cl)c2)c1C(=O)NCC(F)F  IC50 (DRD3; β-arrestin recruitment, antagonist): 7600 nM
Fc1ccc(Cc2[nH]nc(-c3ccccn3)c2-c2ccnc3ccccc23)cc1  IC50 (Serine/threonine protein kinase YCK2 (YCK2, Candida albicans, UniProt A0A1D8PKB4); enzyme activity, inhibitor, ADP detection): > 4000 nM and 7000 nM
Cc1[nH]c(C)c(S(=O)(=O)Nc2cc(Cl)cc(C(F)(F)F)c2)c1C(=O)N1CCC(F)(F)C1  IC50 (DRD3; β-arrestin recruitment, antagonist): 29000 nM
CCOC(=O)c1ccccc1-c1c2ccc(=O)cc-2oc2cc(OCCCNc3c(-c4cccc(C=O)c4)nc4ccccn34)ccc12  IC50 (Polyunsaturated fatty acid lipoxygenase ALOX15 (ALOX15, Homo sapiens, UniProt P16050); enzyme activity, inhibitor, absorbance): > 100000 nM
CC(C)c1ccc(OS(=O)(=O)Oc2cccc(C(=O)NO)c2)cc1  IC50 (HDAC6; enzyme activity, inhibitor, fluorescence): 1410 nM
COc1cccc(Cn2nnc3c4ccccc4c(=O)[nH]c32)c1  IC50 (PARP2; enzyme activity, inhibitor): > 10000 nM
Cc1ccc(S(=O)(=O)NNC(=O)COC(=O)c2ccccc2Nc2cccc(C(F)(F)F)c2)cc1  IC50 (Prostaglandin G/H synthase 1 (PTGS1, Ovis aries, UniProt P05979); enzyme activity, inhibitor): 15000 to 26000 nM and 15300 nM
O=C(NO)c1cccc(OS(=O)(=O)Oc2ccc3c(c2)OCO3)c1  IC50 (HDAC6; enzyme activity, inhibitor, fluorescence): 102 nM
Cc1ccc(Cn2nnc3c4cc(C)ccc4c(=O)[nH]c32)cc1  IC50 (PARP2; enzyme activity, inhibitor): > 10000 nM
NC(=O)c1ccc(C(=O)NOCc2cccc(C(F)(F)F)c2)cc1  IC50 (NAD-dependent protein deacylase sirtuin-6 (SIRT6, Homo sapiens, UniProt Q8N6T7); enzyme activity, inhibitor, fluorescence): 2760 nM

Repeated from above:
O=c1[nH]c2c(nnn2Cc2c(F)c(F)c(F)c(F)c2F)c2ccc(F)cc12  IC50 (PARP2; enzyme activity, inhibitor): > 10000 nM
Cc1ccc(S(=O)(=O)NNC(=O)COC(=O)c2ccccc2Nc2cccc(C(F)(F)F)c2)cc1  IC50 (Prostaglandin G/H synthase 1 (PTGS1, Ovis aries, UniProt P05979); enzyme activity, inhibitor): 15000 to 26000 nM and 15300 nM
Cc1nc(Nc2ccc3c(c2)CC(=O)N3)c2ccccc2n1  IC50 (PIK3CB; enzyme activity, inhibitor, ADP detection): 96.9 nM
Cc1cc(C(C)(C)C)ccc1OS(=O)(=O)Oc1cc(F)cc(C(=O)NO)c1  IC50 (HDAC8; enzyme activity, inhibitor, fluorescence): 10300 nM
